Measurements gathered from unrelated publications.
A part holds a random share of what one study measured.

Series 1
Target: Fragile X messenger ribonucleoprotein 1, C-terminal low-complexity region (Fmr1, Mus musculus, UniProt P35922)
Technique: RNA Bind-n-Seq
Molecule type: RNA
Sample: in vitro
Tested at: 200 nM
Setting: whole 134-nt RNA, ends assumed
With: 150 mM KCl
Relative to: input library
Direction: higher = stronger binding
Shared flanks, not repeated: GGGAGUUCUACAGUCCGACGAUC … UGGAAUUCUCGGGUGUCAAGG
| Sequence | log2 enrichment |
| --- | --- |
| UCCUGUGCUACACAUCGUAUGUACCGAAUCGGGAAAAAGGGAAAAAGGGGAAAAAGGGGAAAGUAUUAUGUUACGCCGUUCGGAUCUGCA | 0.24 |
| GUCCUGUGCUACACAUCGUAUGUACCGAAUCGGGAAAAAGGGGAAAAAGGGGAAAAAGGAAAGUAUUAUGUUACGCCGUUCGGAUCUGCA | -0.199 |
| UGGGAGGUGGAUUUUGUUUAUUUUUUUAGCUCAUUUCCAGGGGUGGGAAUUUUUUUUUAAUAUGUGUCAUGAAUACAGUUGUUUUUGAAA | 0.127 |
| UGGGAGGUGGAUUUUGUUUAUUUUUUUAGCUCAUUUCCAGGGGUGGGCAUUUUUUUUUAAUAUGUGUCAUGAAUAAAGUUGUUUUUGAAA | 0.265 |
| CCUGUGCUACACAUCGUAUGUACCGAAUCGGGGAGGGGUUUUUUUGGGGAAAAAAAGGGGAAAGUAUUAUGUUACGCCGUUCGGAUCUGC | 0.0419 |
| GUCCUGUGCUACACAUCGUAUGUACCGAAUCAAAUUUUUAAAUUUAAACCCCCCCAAAAAAGUAUUAUGUUACGCCGUUCGGAUCUGCAC | 0.201 |
| UCCUCAAGUCCUGUGCUACACAUCGUAUGUACCGAAUCGGGCGGGCGGCGGAAAGUAUUAUGUUACGCCGUUCGGAUCUGCACUUCCAGC | -0.261 |
| UCCUGUGCUACACAUCGUAUGUACCGAAUCGGAAAAAAGGAAAAAAGGGGAAAAAAGGGAAAGUAUUAUGUUACGCCGUUCGGAUCUGCA | -0.442 |
| CUCAAGUCCUGUGCUACACAUCGUAUGUACCGAAUCGGGGCCGGCCGGGCCGGAAAGUAUUAUGUUACGCCGUUCGGAUCUGCACUUCCA | -0.0814 |

Series 2
Target: RNA binding protein fox-1 homolog 2, RRM domain, GST-SBP tag (RBFOX2, Homo sapiens, UniProt O43251-10, residues 100-194)
Technique: RNA Bind-n-Seq
Molecule type: RNA
Sample: in vitro
Tested at: 365 nM
Setting: natural RNA segment, single round, ends assumed
Relative to: no-protein control
Direction: higher = stronger binding
Shared flanks, not repeated: GGGAGUUCUACAGUCCGACGAUC … UGGAAUUCUCGGGUGCCAA
Construct (chain): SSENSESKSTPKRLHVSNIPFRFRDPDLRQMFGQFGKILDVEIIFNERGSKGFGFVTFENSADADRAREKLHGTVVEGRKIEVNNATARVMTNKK
| Sequence | RBNS enrichment (R) |
| --- | --- |
| GUAUGGUCCGUGUAGAUUGAUGCAGAUUUUCUGAAAUGAAAUGUUUGUUUAGACGAGAUCAUACCGGUAAAGCAGGAAUGACAAAGCUUGCUUUUCUGGUAUGUUCUAGG | 0.373 |
| GUUGUGUGCAGCUUUAGCGGCAUCAGGACAGCUUCCAGCUUGCAAUGAUUGCUGCUGACAGGAACACCUGGAUCUCAAGAGCUUUUUAUGACAGGUGGACAUCUGUGUCA | 0.328 |
| AGGAAAGGGGAAUUCUGUGAUGGCAAAUGAAAAAAAUGUUAACAUUUGGUAGACAUGUGCUUUGACAUAGCGUGAGCAGCACAUUACUAAAGCAAUUACAUGCAUGUUGC | 7.14 |
| UUCCCUCUUCCACCCCAGCUCCAGCCCUGGUCUUUCUUCCUCUUUCCCAUAACAGAAGCUAUGGCCCUGGCCAUGUCAUCGUGUUCCUGUGUCCCUUGCAUGUUCCCCAC | 8.87 |
| AGGAACUGGUGUAAGUCCUCCAGACACAUCCCUGUGUAAGGAAGCCAGGCACUGUUUCUCUGAGUUUUGUUGUUUUGUUUUCUUUGAAGGCUACUGAGCCCAAGCUUCCC | 0.32 |
| GGCUCGUGAAUCCACUUAGAAUUCUUGGCUUGUGUCGCAUACUGGGUGUCACGGCACACAUUUACUCUGCAUUGUCCCCGUCUUUCCCAUCGCCUAGCGUUUGGGGAGGA | 0.406 |
| UCCUGAAACCCCUCUUGCCUCUCUUCCACGGAAGAGGGCCUGGGCCCCGUGGAGCCUCAGUGCCCGUUUGGCCUGCUGCUCUCGCUGACAAUAAAGAGCCCUUGCGUUGC | 0.776 |
| CUUGGGAGAGAAGCCAUUUCCCCUACCUCUAACGAGCGUAGUUUUCUGUCUGAAUGGCCCCCCUUUUCAUGCACGCUCGUUCUUAAGAGACGCACCAUCCGCAGGCAGCG | 0.716 |

Series 3
Target: Histone acetyltransferase KAT6A, winged helix 2, GST fusion (KAT6A, Homo sapiens, UniProt Q92794, residues 85-181)
Technique: protein binding microarray
Molecule type: double-stranded DNA, one strand shown
Sample: in vitro
Tested at: not given
Setting: 8-mer, flanks averaged, mean of 2 arrays, mostly near background
Relative to: not given
Direction: higher = stronger binding
Construct (chain): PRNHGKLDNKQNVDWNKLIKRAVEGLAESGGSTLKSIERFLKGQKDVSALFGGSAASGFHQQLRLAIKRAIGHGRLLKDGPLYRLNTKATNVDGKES
| Sequence | E-score |
| --- | --- |
| AAATCAAC | -0.149 |
| AATTCATG | 0.17 |
| AAACGCTT | -0.168 |
| GCGTTCAC | 0.0272 |
| CTGGTCTA | -0.284 |
| ATTGTCCA | -0.00084 |
| CCGTGACC | 0.029 |
| AAAGTGTA | -0.265 |
| AGCACTAA | 0.00662 |
| AGTTGGGA | 0.0255 |
| ACTTCAGA | -0.0511 |
| ACTGTGGG | -0.0265 |
| CAGCCTTC | -0.0265 |
| CCAGATAC | -0.0743 |
| GCAAGCTA | 0.115 |
| ATGTATGC | 0.0483 |
| AGATTACT | 0.0533 |
| TAAGTTCA | -0.0808 |
| CCTGCAAG | -0.0415 |
| CAAGCAAG | 0.0861 |
| ACTAACAC | -0.0661 |
| TGCCCAAA | 0.0606 |
| GCGAGCAA | -0.0831 |
| ATCACCGC | -0.106 |
| CCGGCTGA | 0.204 |

Series 4
Target: Prothrombin, mature alpha-thrombin (F2, Homo sapiens, UniProt P00734)
Technique: aptamer microarray, sandwich
Molecule type: DNA with 2'F-ANA
Sample: in vitro
Tested at: 200 nM
Setting: whole 15-mer aptamer, many near background
With: Cy3 exosite-II aptamer, 400 nM
Direction: higher = stronger binding
Sequence: GGTTGGTGTGGTTGG
| Modification | mean fluorescence intensity [a.u.] |
| --- | --- |
| 2'F-ANA at 4 6 8 11 15 | 255 |
| 2'F-ANA at 1 2 3 6 7 8 9 10 13 15 | 64.7 |
| 2'F-ANA at 1 2 4 6 8 10 11 12 13 14 15 | 46.6 |
| 2'F-ANA at 3 7 8 10 12 13 | 730 |
| 2'F-ANA at 3 5 6 7 8 11 12 13 | 271 |
| 2'F-ANA at 2 3 4 5 9 11 12 13 14 | 49.2 |
| 2'F-ANA at 2 5 6 7 13 14 | 60.3 |
| 2'F-ANA at 6 9 10 12 13 14 15 | 110 |
| 2'F-ANA at 1 2 3 5 6 7 8 9 11 13 15 | 54.1 |
| 2'F-ANA at 1 3 4 5 7 8 9 | 69.7 |
| 2'F-ANA at 1 9 10 12 14 | 54.6 |
| 2'F-ANA at 1 4 5 6 9 12 14 15 | 109 |
| 2'F-ANA at 1 7 8 9 10 12 13 | 69.4 |
| 2'F-ANA at 1 2 6 7 8 11 12 15 | 286 |
| 2'F-ANA at 1 3 5 6 8 11 15 | 57.3 |
| 2'F-ANA at 1 2 5 13 14 15 | 61.3 |
| 2'F-ANA at 1 3 7 8 10 12 | 137 |
| 2'F-ANA at 1 3 5 7 8 10 12 13 14 15 | 48.5 |
| 2'F-ANA at 2 5 7 8 9 10 11 12 14 | 45.2 |
| 2'F-ANA at 2 3 6 9 15 | 709 |
| 2'F-ANA at 3 4 5 6 9 10 12 15 | 58.4 |

A few entries again (series 4):
| Modification | mean fluorescence intensity [a.u.] |
| --- | --- |
| 2'F-ANA at 3 5 6 7 8 11 12 13 | 271 |
| 2'F-ANA at 1 9 10 12 14 | 54.6 |
| 2'F-ANA at 4 6 8 11 15 | 255 |
| 2'F-ANA at 1 2 4 6 8 10 11 12 13 14 15 | 46.6 |
| 2'F-ANA at 1 2 3 5 6 7 8 9 11 13 15 | 54.1 |
| 2'F-ANA at 6 9 10 12 13 14 15 | 110 |
| 2'F-ANA at 3 7 8 10 12 13 | 730 |
| 2'F-ANA at 1 7 8 9 10 12 13 | 69.4 |
